Measurements collected from several papers.
A part holds a random share of what one study measured.
Sequence of UniProt O75460 (whole entry, looked up): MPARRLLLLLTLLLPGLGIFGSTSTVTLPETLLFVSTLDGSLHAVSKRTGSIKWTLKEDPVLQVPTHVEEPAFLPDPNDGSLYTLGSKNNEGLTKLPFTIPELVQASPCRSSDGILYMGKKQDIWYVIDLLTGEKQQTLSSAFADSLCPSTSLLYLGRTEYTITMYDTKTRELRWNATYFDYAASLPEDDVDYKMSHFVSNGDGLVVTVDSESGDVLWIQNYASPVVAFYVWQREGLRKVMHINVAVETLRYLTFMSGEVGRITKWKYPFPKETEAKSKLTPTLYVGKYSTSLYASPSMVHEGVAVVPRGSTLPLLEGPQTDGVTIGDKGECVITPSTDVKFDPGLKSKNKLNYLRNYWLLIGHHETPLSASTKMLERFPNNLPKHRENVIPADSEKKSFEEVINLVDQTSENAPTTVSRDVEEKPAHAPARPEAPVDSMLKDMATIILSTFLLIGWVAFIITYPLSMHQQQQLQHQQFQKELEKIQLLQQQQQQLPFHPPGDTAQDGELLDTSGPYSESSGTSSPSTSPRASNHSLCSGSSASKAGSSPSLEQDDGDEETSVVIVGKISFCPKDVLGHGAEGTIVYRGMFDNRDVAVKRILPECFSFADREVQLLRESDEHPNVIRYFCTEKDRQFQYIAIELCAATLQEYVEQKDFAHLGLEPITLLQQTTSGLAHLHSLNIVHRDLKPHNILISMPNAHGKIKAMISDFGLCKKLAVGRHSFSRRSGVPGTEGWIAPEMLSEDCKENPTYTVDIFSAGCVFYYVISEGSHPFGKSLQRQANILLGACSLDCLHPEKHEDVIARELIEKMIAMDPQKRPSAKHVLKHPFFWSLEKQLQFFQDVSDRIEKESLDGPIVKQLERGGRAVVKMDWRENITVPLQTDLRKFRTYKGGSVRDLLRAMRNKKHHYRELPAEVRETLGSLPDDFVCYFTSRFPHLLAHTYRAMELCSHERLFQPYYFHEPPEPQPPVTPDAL
Sequence of UniProt Q9UK32 (whole entry, looked up): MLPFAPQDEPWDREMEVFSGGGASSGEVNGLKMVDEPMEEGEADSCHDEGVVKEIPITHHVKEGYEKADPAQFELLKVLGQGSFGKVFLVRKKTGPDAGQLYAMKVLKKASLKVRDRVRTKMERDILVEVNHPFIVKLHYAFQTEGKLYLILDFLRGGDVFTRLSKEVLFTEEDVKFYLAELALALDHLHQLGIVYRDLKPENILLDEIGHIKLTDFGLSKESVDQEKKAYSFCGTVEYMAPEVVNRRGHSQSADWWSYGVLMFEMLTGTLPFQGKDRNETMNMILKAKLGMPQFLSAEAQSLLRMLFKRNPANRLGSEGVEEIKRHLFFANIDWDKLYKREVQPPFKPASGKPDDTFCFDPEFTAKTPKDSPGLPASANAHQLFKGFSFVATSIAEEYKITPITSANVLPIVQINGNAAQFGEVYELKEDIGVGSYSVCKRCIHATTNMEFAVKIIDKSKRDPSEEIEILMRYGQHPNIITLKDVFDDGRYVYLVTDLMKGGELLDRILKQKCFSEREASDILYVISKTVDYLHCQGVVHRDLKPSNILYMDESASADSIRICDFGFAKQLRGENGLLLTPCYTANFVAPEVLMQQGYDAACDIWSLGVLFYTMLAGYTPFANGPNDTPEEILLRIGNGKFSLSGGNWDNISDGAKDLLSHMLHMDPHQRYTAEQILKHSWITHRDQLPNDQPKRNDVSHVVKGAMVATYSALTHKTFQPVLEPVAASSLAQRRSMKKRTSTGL
Sequence of UniProt O15111 (whole entry, looked up): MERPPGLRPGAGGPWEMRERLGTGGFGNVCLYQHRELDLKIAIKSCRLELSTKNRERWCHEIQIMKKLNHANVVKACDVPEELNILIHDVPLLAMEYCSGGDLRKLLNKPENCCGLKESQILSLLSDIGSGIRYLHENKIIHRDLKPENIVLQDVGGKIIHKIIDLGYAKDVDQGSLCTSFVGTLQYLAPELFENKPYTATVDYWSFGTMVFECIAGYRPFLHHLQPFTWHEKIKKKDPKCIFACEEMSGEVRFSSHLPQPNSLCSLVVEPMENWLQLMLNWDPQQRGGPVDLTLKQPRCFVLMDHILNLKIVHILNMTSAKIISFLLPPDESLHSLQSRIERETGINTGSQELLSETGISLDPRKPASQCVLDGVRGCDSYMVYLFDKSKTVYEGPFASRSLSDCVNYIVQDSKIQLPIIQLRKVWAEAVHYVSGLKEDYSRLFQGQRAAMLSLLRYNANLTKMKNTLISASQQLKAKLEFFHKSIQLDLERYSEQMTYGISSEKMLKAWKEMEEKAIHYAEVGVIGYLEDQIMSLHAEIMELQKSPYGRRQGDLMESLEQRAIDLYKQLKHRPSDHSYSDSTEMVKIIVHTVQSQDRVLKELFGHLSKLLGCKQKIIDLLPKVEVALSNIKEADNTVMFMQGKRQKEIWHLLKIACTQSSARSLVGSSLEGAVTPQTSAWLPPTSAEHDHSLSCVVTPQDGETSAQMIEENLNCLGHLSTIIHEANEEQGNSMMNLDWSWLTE
Sequence of UniProt Q8TF76 (whole entry, looked up): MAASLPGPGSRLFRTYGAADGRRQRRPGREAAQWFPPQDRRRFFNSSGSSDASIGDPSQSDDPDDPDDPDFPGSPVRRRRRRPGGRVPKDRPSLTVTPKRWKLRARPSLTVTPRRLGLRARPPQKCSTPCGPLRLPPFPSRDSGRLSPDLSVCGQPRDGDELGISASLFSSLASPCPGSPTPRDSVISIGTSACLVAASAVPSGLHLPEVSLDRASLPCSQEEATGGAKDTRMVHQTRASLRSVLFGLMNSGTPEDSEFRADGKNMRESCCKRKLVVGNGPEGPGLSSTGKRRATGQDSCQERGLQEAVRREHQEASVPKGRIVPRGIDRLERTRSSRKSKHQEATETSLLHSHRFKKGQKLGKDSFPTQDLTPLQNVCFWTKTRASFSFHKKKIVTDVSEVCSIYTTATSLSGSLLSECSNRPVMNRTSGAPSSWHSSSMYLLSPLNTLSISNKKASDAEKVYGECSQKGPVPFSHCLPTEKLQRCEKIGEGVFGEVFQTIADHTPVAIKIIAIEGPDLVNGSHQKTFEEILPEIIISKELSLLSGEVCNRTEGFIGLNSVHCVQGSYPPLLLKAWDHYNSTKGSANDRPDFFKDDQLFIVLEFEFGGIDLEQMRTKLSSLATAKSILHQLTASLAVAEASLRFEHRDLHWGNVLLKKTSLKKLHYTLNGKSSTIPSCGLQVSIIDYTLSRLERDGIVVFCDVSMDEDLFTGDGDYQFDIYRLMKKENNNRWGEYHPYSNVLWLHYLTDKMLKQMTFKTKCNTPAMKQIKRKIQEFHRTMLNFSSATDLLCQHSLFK

Block 1
Target: Eukaryotic initiation factor 4A-I (EIF4A1, Homo sapiens, UniProt P60842, residues 1-406, full length assumed)
Sequence of UniProt P60842 (whole entry, looked up): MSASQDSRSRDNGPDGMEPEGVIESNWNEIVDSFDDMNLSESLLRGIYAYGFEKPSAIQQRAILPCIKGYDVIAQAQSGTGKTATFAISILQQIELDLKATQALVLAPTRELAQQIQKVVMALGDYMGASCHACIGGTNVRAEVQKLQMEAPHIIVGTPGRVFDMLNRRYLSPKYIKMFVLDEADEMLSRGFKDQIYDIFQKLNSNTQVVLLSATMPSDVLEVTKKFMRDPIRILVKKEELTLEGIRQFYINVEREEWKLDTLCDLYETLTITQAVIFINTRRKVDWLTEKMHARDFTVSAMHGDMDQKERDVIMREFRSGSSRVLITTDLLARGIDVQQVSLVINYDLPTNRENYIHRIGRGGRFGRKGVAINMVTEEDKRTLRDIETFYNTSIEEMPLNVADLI
Technique: RNA Bind-n-Seq
Molecule type: RNA
Sample: in vitro
Tested at: 90 pmol
Setting: 4-mer, random 30-nt RNA, single round
Together with: 3 µM iPr-DMDA-PatA, 2 mM ADP, 2 mM phosphate
Baseline: input library
Direction: higher = stronger binding
Sequence | 4-mer enrichment [fold]
ACCG | 0.96
GGGU | 0.673
UUUA | 1.25
ACUU | 1.11
GUUA | 1.07
AGUA | 1.24
UUUC | 1.05
AUCC | 1.13

Block 2
SMILES: CC1=C(C#N)[C@@H](c2ccc3[nH]nc(C)c3c2)C(C#N)=C(c2ccc(Cl)cc2)N1
Effect on: cell-free assay
Technique: competition with immobilised ligand
Tested at: 1 µM
target | remaining binding [%]
Inhibitor of nuclear factor kappa-B kinase subunit alpha (CHUK, Homo sapiens, UniProt O15111) | 100
Dual specificity tyrosine-phosphorylation-regulated kinase 1B (DYRK1B, Homo sapiens, UniProt Q9Y463) | 50.1
Hepatocyte growth factor receptor (MET, Homo sapiens, UniProt P08581, M1250T) | 25.1
Ribosomal protein S6 kinase alpha-6, C-terminal kinase domain (RPS6KA6, Homo sapiens, UniProt Q9UK32) | 77.4
Proto-oncogene tyrosine-protein kinase Src (SRC, Homo sapiens, UniProt P12931) | 100
Serine/threonine-protein kinase haspin (HASPIN, Homo sapiens, UniProt Q8TF76) | 100
Serine/threonine-protein kinase 36 (STK36, Homo sapiens, UniProt Q9NRP7) | 95.9
Phosphatidylinositol 4,5-bisphosphate 3-kinase catalytic subunit alpha isoform (PIK3CA, Homo sapiens, UniProt P42336, Q546K) | 93.7
Serine/threonine-protein kinase/endoribonuclease IRE1 (ERN1, Homo sapiens, UniProt O75460) | 100
Ribosomal protein S6 kinase alpha-2, N-terminal kinase domain (RPS6KA2, Homo sapiens, UniProt Q15349) | 85.4
RAC-beta serine/threonine-protein kinase (AKT2, Homo sapiens, UniProt P31751) | 100
Serine/threonine-protein kinase SBK1 (SBK1, Homo sapiens, UniProt Q52WX2) | 100
Serine/threonine-protein kinase 16 (STK16, Homo sapiens, UniProt O75716) | 100
Mitogen-activated protein kinase kinase kinase 3 (MAP3K3, Homo sapiens, UniProt Q99759) | 100
Serine/threonine-protein kinase PLK1 (PLK1, Homo sapiens, UniProt P53350) | 100
Mitogen-activated protein kinase kinase kinase 1 (MAP3K1, Homo sapiens, UniProt Q13233) | 100
Epidermal growth factor receptor (EGFR, Homo sapiens, UniProt P00533, del746-750) | 75.1
Serine/threonine-protein kinase SIK2 (SIK2, Homo sapiens, UniProt Q9H0K1) | 100

Block 3
Target: MAP kinase-activated protein kinase 5 (MAPKAPK5, Homo sapiens, UniProt Q8IW41)
Sequence of UniProt Q8IW41 (whole entry, looked up): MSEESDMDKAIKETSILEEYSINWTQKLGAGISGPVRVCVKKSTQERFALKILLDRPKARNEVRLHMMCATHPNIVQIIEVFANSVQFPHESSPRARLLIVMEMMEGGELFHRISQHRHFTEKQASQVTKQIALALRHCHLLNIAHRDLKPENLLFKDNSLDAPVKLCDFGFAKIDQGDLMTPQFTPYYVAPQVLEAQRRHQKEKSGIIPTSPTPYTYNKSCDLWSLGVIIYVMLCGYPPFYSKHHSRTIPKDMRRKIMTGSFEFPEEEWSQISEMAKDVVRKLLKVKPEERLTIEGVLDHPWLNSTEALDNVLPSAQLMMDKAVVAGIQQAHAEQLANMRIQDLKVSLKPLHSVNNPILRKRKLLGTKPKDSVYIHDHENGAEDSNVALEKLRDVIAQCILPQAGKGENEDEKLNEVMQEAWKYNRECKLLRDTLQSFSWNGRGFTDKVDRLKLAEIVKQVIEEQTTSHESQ
Effect on: enzyme activity
Action: inhibitor
Tested at: 0.5 µM
Baseline: control
SMILES | remaining activity [%]
Nc1ccc2ncnc(NCCc3ccc(Oc4ccccc4)cc3)c2c1 | 101
COc1cc2nccc(Oc3ccc(NC(=S)NC(=O)c4ccccc4C)cc3)c2cc1OC | 99
Cn1sc(=O)n(Cc2ccccc2)c1=O | 94.2
COc1ccc(OC)c2c(=S)c3ccccc3[nH]c12 | 109
OCC(O)CCON=C1C(c2c(O)[nH]c3ccccc23)=Nc2ccccc21 (stereo not shown) | 86.8
Nc1[nH]nc2nc3ccccc3nc12 | 82.7
CO[C@H]1C[C@@H]2CC[C@@H](C)[C@@](O)(O2)C(=O)C(=O)N2CCCC[C@H]2C(=O)O[C@H]([C@H](C)C[C@@H]2CC[C@@H](O)[C@H](OC)C2)CC(=O)[C@H](C)/C=C(\C)[C@@H](O)[C@@H](OC)C(=O)[C@H](C)C[C@H](C)/C=C/C=C/C=C/1C | 98
COc1ccc(CNC(=O)Nc2ncc([N+](=O)[O-])s2)cc1 | 90.1
Cc1ccc(NC(=O)c2ccc(CN3CCN(C)CC3)cc2)cc1Nc1nc(-c2cccnc2)cs1 | 103
CCOC(=O)c1c(C)[nH]c(/C=C2\C(=O)Nc3ccccc32)c1C | 93.9
COc1cc2ncnc(Nc3ccc(F)c(Cl)c3)c2cc1OCCCN1CCOCC1 | 92.7
O=S(=O)(c1cccc2cnccc12)N1CCCNCC1 | 72.6
NCCNc1ncc(C(N)=O)c(Nc2cccc(C(F)(F)F)c2)n1 | 84
Nc1ncnc2n[nH]c(Nc3ccc(F)cc3)c12 | 80.9
O=C(Nc1cccc(Nc2cc(Nc3cccc(C(F)(F)F)c3)ncn2)c1)C1CC1 | 101

Single results of other studies
Technique: cross-linking MS
Substance | partner | sample | setting | together with | quantity | value
PPIB (Homo sapiens, UniProt P23284) | UTRN (Homo sapiens, UniProt P46939) | cell fractions | – | DHSO | cross-linked residues | D74 to E1493
H2BC21 (Homo sapiens, UniProt Q16778) | H2AC25 (Homo sapiens, UniProt Q7L7L0) | – | hits only | – | interaction screen | cross-linked

Excerpt of the above (block 2):
target | remaining binding [%]
RAC-beta serine/threonine-protein kinase (AKT2, Homo sapiens, UniProt P31751) | 100
Ribosomal protein S6 kinase alpha-2, N-terminal kinase domain (RPS6KA2, Homo sapiens, UniProt Q15349) | 85.4
Mitogen-activated protein kinase kinase kinase 1 (MAP3K1, Homo sapiens, UniProt Q13233) | 100
